Assay results from different studies.
A part holds a random share of what one study measured. Substitutions count along the parent as printed.

Block 1
Target: RNA binding protein fox-1 homolog 2, RRM domain, GST-SBP tag (RBFOX2, Homo sapiens, UniProt O43251-10, residues 100-194)
Method: RNA Bind-n-Seq
Molecule type: RNA
Sample: in vitro
Concentration: 365 nM
Notes: natural RNA segment, single round, ends assumed
Baseline: no-protein control
Direction: higher = stronger binding
Shared flanks, not repeated: GGGAGUUCUACAGUCCGACGAUC … UGGAAUUCUCGGGUGCCAA
Residues (chain): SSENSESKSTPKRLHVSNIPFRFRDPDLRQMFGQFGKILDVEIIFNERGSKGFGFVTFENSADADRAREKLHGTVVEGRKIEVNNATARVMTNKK
Strand | RBNS enrichment (R)
UCUUCAUGUUUCUUCUUUGUAUAUUUGGUGACUGUAUUGUCAUAGAUGUACAUAUCGUGUCGGUAGGGCUAUGAGGCAUGUUACAGGAAUGUAAUUUUCUCAGAAUUUAC | 0.303
AAAAGGAACUCUAUUAAUAAGCUAGACUGCUUUUGGUUUCCAGUAAUUGGUUUAAAAACACAGUAAAUUUACUGGCUUAUAAAGCUGAAAAAGCCUAGGAGUACUGGCAG | 0.347
ACGCCAGGAGCAGGUGGCAGCUAAGGUGGUCCCCCGCAACCCUCCCACUUGUGUCUCACCCCCAUGUCAUUUCUCCUUCUCUGCCUUGGUUCCUCUUUCUCCAUCACUGG | 0.534
UUCAGAGAAAAAUCUUAAAAGCAGACCAUCCUUUUUUGCAUGCUCUAUUCUAAGUAGAAUGUUCAAUGUAACUGACUAAAAUUGCAUGUUAAAGAUAUUUAGGUUUUUUU | 10.7
GGCCGUCCAUCCUCGCAUUGCUGUUGAAUGGUGAGCACGUGACCAUGCCGACCACAAAGGUGUCUGCGGAAACUCGAGGACAUUCACCACGAUGAUUUUCCUCUCUUUGA | 0.479
AAAUUAUUUCCUUUCAAGGGCCCUUUAAUAUCUAUCAAGCUCCCUCCCCUAACAAAAUGGGCUGUCCCUGCCCAACAAGUCUGAAAUAGACCUUAAAACUGUGCUGCCUU | 0.64
AGGUGUUUCCUGCGCUACUACUUGUCAUGUUGCAUUCAUGUUCACAUCCUGAUUUCACUGCCUCAGAUGUGCCUGGCCACAAAGCACUCUGAACUAAUUCCUAAAGAGAA | 0.596
ACCCAGCAACCAGCCUCUCAUUUUCAGGGCAGGCAGCAGAGACCCGGGUCUCUUGCCUUGAGAUGGGGGGAGUCCUAGGAAGAAGAGUGGUCUGGUCCUGUUUCUGCAGA | 0.511
CAUUCUCUUUUAGCAACUGAAUUCCCAACGAGUUUUAUUAAGCUGGAUAUCGAAAUGAAGGAGCUGCCUUAAGCACUUUAGAAAAAGAAUUUUUUUACAAUUCAUUUUGA | 0.654
CCCACAAAGACCUCCUGGGUGGGAAAGACUCAAAGGGGUGCUUGGGCCACUCAGGACCCCUCUGGCUGUGUCGGACUGGGGAGGGAUAUGAUGGAGAGCCAGCCAGUGGG | 0.628
AAACCCCAUCAAGGACCGAGUAUGUGUCUGGUUCCUUGGGUGGGACGAUUCCUGACCACACUGUCCAGCUCUUGCUCUCAUUAAAUGCUCUGUCUCCCGCGGAAAGCUCC | 1.58
AUCUUCUGUUGAUUUACACCUUUGACAUUUGUAUUCGUCAACCCUGUGGCUUGUUAGCAUCAGAACCUCUCUGAAGACCAAACUUCCCUGUGUGGCCAGCAGAGGAAGCC | 0.539

Block 2
Cell line: yeast with cyclin D2-Cln2 chimera
Effect on: cell growth
Mode: binder
Method: competitive growth deep sequencing
Molecule type: peptide
Concentration: concentration not given
Notes: peptide tiling library
Direction: direction not given
Sequence | growth enrichment score
DGCSPIKNWSPMRL | 0.659
VLPGGVPSPGASLTSM | 0.778
RNRGPKLNAMLRLGVL | -1.43
PQWPCGKHKRVLIFAS | -0.6
TRRRLFVENDSP | -0.657
SGYLTDENEVGFRG | 0.127
QNPCGSKACRRLFGPV | 0.238
KDDDKAWEYEERDRRS | 0.488
AEHPKPSACRNLFGPV | 0.18
VLVRTSACRSLFGPVD | 0.357
NFETPEAETPIRSPFK | -1.26
TSPGPVLLHPSPSTTQ | 0.563
VRDLSYRLVFLACCVA | -1.34

Block 3
Target: Histone acetyltransferase KAT6A, both winged helices, GST fusion (KAT6A, Homo sapiens, UniProt Q92794, residues 1-181)
Method: protein binding microarray
Molecule type: double-stranded DNA, one strand shown
Sample: in vitro
Concentration: not given
Notes: 8-mer, flanks averaged, mean of 2 arrays, mostly near background
Baseline: not given
Direction: higher = stronger binding
Residues (chain): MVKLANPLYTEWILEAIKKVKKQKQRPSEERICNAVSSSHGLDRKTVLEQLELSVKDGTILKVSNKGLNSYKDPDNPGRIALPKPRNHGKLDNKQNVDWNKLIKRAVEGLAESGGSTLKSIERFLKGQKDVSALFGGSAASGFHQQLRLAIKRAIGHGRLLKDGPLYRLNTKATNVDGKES
Strand | E-score
AGATATCT | -0.159
CAAGGTAA | 0.0304
CGAACTGC | 0.0364
ATGGGGTG | -0.131
GTAACGGA | 0.203
AATTTAGA | -0.149
CGTTTGCA | 0.0554
ATGGGTGA | -0.112
CCATGGTA | -0.145
AATAGAAG | -0.112
CGAGAATA | -0.0238
ATGCCTAC | -0.19
CAGGCGTC | 0.0566
TACTACAA | 0.0115
CATGGCCA | -0.191
GATACACA | -0.123
TGAAAAAA | -0.0117
AAAGTCAC | -0.0721

Block 4
Target: ABI1, truncated, D143A, DHFR fusion (Arabidopsis thaliana)
Method: DHFR PCA, deep sequencing
Sample: yeast
Notes: methotrexate growth selection, single substitutions
With: (+)-ABA 2500 µM
Baseline: wild-type fitted maximum
Direction: higher = stronger binding
Starting sequence: PYL1, truncated, DHFR fusion (Arabidopsis thaliana); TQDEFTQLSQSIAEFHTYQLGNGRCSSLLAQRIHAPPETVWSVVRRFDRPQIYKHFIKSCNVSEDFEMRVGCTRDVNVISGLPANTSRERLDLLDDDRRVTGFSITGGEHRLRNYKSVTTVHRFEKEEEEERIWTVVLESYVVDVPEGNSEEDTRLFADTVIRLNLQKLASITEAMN; partner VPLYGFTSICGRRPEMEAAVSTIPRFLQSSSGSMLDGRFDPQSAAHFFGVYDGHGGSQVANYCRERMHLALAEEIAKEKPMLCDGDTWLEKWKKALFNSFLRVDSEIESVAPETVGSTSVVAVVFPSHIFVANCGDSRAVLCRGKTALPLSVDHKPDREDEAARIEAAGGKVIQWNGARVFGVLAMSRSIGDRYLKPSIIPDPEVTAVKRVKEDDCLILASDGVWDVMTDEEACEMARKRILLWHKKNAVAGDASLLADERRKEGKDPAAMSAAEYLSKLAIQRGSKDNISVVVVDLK
Change | relative binding score [%]
W134E | 114
I79Q | 101
T173N | 85.5
H55V | 89.3
D48A | 86.3
F124G | 108
A175S | 95.4
T1P | 103
L93W | 97.2
V44D | -4.33
R113N | 105
Q7D | 104
E64W | 88.1
S80P | 63.9
V136D | 82.7
K126N | 102

Block 5
Target: Fragile X messenger ribonucleoprotein 1, C-terminal low-complexity region (Fmr1, Mus musculus, UniProt P35922)
Method: RNA Bind-n-Seq
Molecule type: RNA
Sample: in vitro
Concentration: 200 nM
Notes: whole 134-nt RNA, ends assumed
With: 150 mM LiCl
Baseline: input library
Direction: higher = stronger binding
All molecules: 7-deaza-guanosine replaces G
Shared flanks, not repeated: GGGAGUUCUACAGUCCGACGAUC … UGGAAUUCUCGGGUGUCAAGG
Strand | log2 enrichment
GCAGGAAGUAAAAACAAAUGGAAAUGCUUCGGAUAGUGGCAGGGGUGGGGGUUGCUAAGGAAAGGGUGGGAUGGGAGUGGGUAAAAAAUU | 1.42
ACCAUGCAGGUGGGCAACUUUGGGAAGUGGGGCAAGGGGGGGAUAGGGAGGGGGGUAACACUUUGGGAACAGGUGGUCCCAGGUCGUUUC | 1.46
CUCAAGUCCUGUGCUACACAUCGUAUGUACCGAAUCGGUUGGGUUGGGGUUGGGAAAGUAUUAUGUUACGCCGUUCGGAUCUGCACUUCC | -0.158
CAAGUCCUGUGCUACACAUCGUAUGUACCGAAUCGGGCCCGGGCCCGGGGCCCGGAAAGUAUUAUGUUACGCCGUUCGGAUCUGCACUUC | -1.72
GCAGGAACUAAAAACAAAUGGAAAUGCUUCGGAUAGUGGCAGGGGUGGGGGUUGCUAAGGAAAGGGUGGGAUGGGAGUGGGUAAAGAGUU | 1.87
GCAGGAAGUAAAAACAAAUGGAAAUGCCUCGGAUAGUGGCAGGGGUGGGGGUUGCUAAGGAAAGGGUGGGAUGGGAGUGGGUAAAGAGUU | 1.8
UUCAGUAAAAUGGCAGAAGAGAAACUGACCCACAAAAUGGAAGCUAAUAAAGAGAACCGAGAGGCACAAAUGGCUGCCAAACUGGAACGU | 0.854
UCCUGUGCUACACAUCGUAUGUACCGAAUCGGGGAAAAAGGGAAAAAGGGAAAAAGGGGAAAGUAUUAUGUUACGCCGUUCGGAUCUGCA | -0.656
UGGCCCUAGUGGCAUGCGGGGAGGAAGAGGUGGCCUCAUGGAUCGUGGUGGUCCCGGUGGAAUGUUCAGAGGUGGCCGUGGUGGAGACAG | 0.0404
GUUGUAGACACUCCUGGGAUCCUGGACCACCCUCUGGAGGAUAGGAACACCAUCGAGAUGCAGGCCAUCACUGCCCUGGCCCACCUCCGU | 1.5
AGUCCUGUGCUACACAUCGUAUGUACCGAAUCGGGGAAAAAGGAAAAAGGGAAAAAGGAAAGUAUUAUGUUACGCCGUUCGGAUCUGCAC | -0.718

Other studies, line by line
Molecule | target | test | test system | setting | scale | measurement | value
PhoQ, residues 284 288 289 292 302 303 SLKLQV | PhoP, residues 12 14 15 18 19 YHFSH (Escherichia coli, UniProt P23836) | Sort-seq, measured: YFP reporter | E. coli | PhoQ-PhoP variant library, with: 10 µM Mg2+ | baseline: high Mg2+ state, higher = stronger signaling | fold induction | 2.92

For quick reference, copied from above (block 4):
Change | relative binding score [%]
W134E | 114
I79Q | 101
T173N | 85.5
H55V | 89.3
D48A | 86.3
F124G | 108
A175S | 95.4
T1P | 103
L93W | 97.2
V44D | -4.33
R113N | 105
Q7D | 104
